# Experimental data gathered from unrelated publications.
# Organism: Streptococcus pyogenes
Compound,test,test system,setting,endpoint,value
N#Cc1ccc(-c2c[nH]c(CNC(=O)Nc3ncc(Sc4ccccn4)s3)n2)cc1,broth microdilution,ATCC 19615,without verapamil,MIC,0.125 µM
COc1c(CC=C(C)C)c(O)cc2c1-c1oc3c(CC=C(C)C)c(O)ccc3c1CO2,,ATCC 19615,,MIC,inactive
COc1ccc(C(=O)CSc2nnc(COCCn3c([N+](=O)[O-])cnc3C)o2)cc1F,,DMSO,"60 µg/mL, 24 h, 37 °C",inhibition zone diameter,≥ 20 mm
CC(C)=CCc1cc([C@@H]2CC(=O)c3c(O)cc(O)c(CC=C(C)C)c3O2)cc(CC=C(C)C)c1O,,ATCC 19615,,MIC,128 µg/mL
Cc1ncc([N+](=O)[O-])n1CCOCc1nnc(SCC(=O)c2ccc(Br)cc2)o1,,DMSO,"60 µg/mL, 24 h, 37 °C",inhibition zone diameter,15 to 20 mm
CCCCCCSCC1OC(OC2C(N)CC(N)C(OC3OC(CN)C(O)CC3N)C2O)C(O)C(N)C1O (centres unmarked),,M12 MGAS9429,,MIC,> 150 µg/mL
CC1(C)S[C@@H]2[C@H](NC(=O)[C@H](NC(=O)C3=C(O)C(c4ccccc4F)NC3=O)c3ccccc3)C(=O)N2[C@H]1C(=O)O (some centres unmarked),"microbial growth, broth dilution",ATCC700294,,MIC,0.39 µg/mL
CCCCCCCCCCCCCCCCCCSCC1OC(OC2C(N)CC(N)C(OC3OC(CN)C(O)CC3N)C2O)C(O)C(N)C1O (centres unmarked),,M12 MGAS9429,,MIC,> 150 µg/mL
O=C(O)CN1C(=O)/C(=C/c2ccc(-c3ccc(N(c4ccccc4)c4ccccc4)cc3)cc2)NC1=S,broth microdilution,ATCC 19615,,MBC/MIC ratio,4
CC(C)=CCc1cc2c(cc1O)OCc1c-2oc2c(CC=C(C)C)c(O)ccc12,,ATCC 19615,,MIC,inactive
Cc1ncc([N+](=O)[O-])n1CCOCc1nnc(SCC(=O)c2ccc([N+](=O)[O-])cc2)o1,,DMSO,"60 µg/mL, 24 h, 37 °C",inhibition zone diameter,10 to 15 mm

# Some of these lines once more:
Compound,test,test system,setting,endpoint,value
COc1ccc(C(=O)CSc2nnc(COCCn3c([N+](=O)[O-])cnc3C)o2)cc1F,,DMSO,"60 µg/mL, 24 h, 37 °C",inhibition zone diameter,≥ 20 mm
